# Assay results from different studies.
# Each line is one published result; not all experiments were run side by side. ± marks the error that the study gave.
SMILES,tested on,assay,test system,conditions,how to read,endpoint,result
N=C(N)NCCC[C@@H]1NC(=O)[C@H](CCCCNC(=O)CNC(=O)CNC(=O)CNC(=O)CC[C@H](NC(=O)CNC(=O)CNC(=O)CNC(=O)CC[C@H](NC(=O)CN2CCN(CC(=O)O)CCN(CC(=O)O)CCN(CC(=O)O)CC2)C(=O)NCC(=O)NCC(=O)NCC(=O)N[C@@H](CCC(=O)NCC(=O)NCC(=O)NCC(=O)NCCCC[C@@H]2NC(=O)[C@@H](Cc3ccccc3)NC(=O)[C@H](CC(=O)O)NC(=O)CNC(=O)[C@H](CCCNC(=N)N)NC2=O)C(=O)NCC(=O)NCC(=O)NCC(=O)NCCCC[C@@H]2NC(=O)[C@@H](Cc3ccccc3)NC(=O)[C@H](CC(=O)O)NC(=O)CNC(=O)[C@H](CCCNC(=N)N)NC2=O)C(=O)NCC(=O)NCC(=O)NCC(=O)NCCCC[C@@H]2NC(=O)[C@@H](Cc3ccccc3)NC(=O)[C@H](CC(=O)O)NC(=O)CNC(=O)[C@H](CCCNC(=N)N)NC2=O)NC(=O)[C@@H](Cc2ccccc2)NC(=O)[C@H](CC(=O)O)NC(=O)CNC1=O [indium-111 labelled],,,"female athymic nu/nu mice, heart","intravenous, 0.5 h",,tissue uptake,1.5 ± 0.76 %ID/g
CC(C)[C@H](NC(=O)[C@H](CCC(=O)O)NC(=O)[C@@H](NC(=O)[C@@H](C)c1cccc(C(=O)c2ccccc2)c1)C(C)C)C(=O)N[C@@H](CCC(=O)O)C(=O)O,,,water,,,minimum gelation concentration,≥ 5 mM
CN1C(=O)[C@@H](Cc2ccc(O)cc2)NC(=O)CNC(=O)[C@H](Cc2ccc3ccccc3c2)NC(=O)[C@H](CCCNC(=N)N)NC(=O)[C@H]1CCCNC(=O)c1ccc(CNC(=O)CN2CCN(CC(=O)O)CCN(CC(=O)O)CCN(CC(=O)O)CC2)cc1 [gallium-68 labelled],,,"adult reference man, from C57BL/6 mice data, gall bladder wall",,,absorbed dose coefficient,0.0132 mGy/MBq
[64Cu+2].c1ccc(CNCc2ccc(CN3CCCN4CCNCCCN(CC4)CC3)cc2)nc1,CXCR4,,"NOD/SCID mouse, U87 and U87-stb-CXCR4 xenografts, heart","iv, 90 min, no blocking dose, ex vivo",,tissue uptake,1.49 ± 0.16 %ID/g
N=C(N)NCCC[C@@H]1NC(=O)[C@H](Cc2c[nH]c3ccccc23)NC(=O)[C@@H](CC2CCCCC2)NC(=O)[C@@H]2CCCN2C(=O)[C@@H](NC(=O)CCc2ccccc2)CCCNC1=O,,,"C57BL/6J mice, plasma","subcutaneous, 1 mg/kg, two-compartment model",,elimination rate constant,0.000578 s⁻¹
CCCC[C@H](NC(=O)CNC(=O)CNC(=O)CN1CCN(CC(=O)O)CCN(CC(=O)O)CCN(CC(=O)O)CC1)C(=O)N[C@H]1CC(=O)NCCCC[C@@H](C(N)=O)NC(=O)[C@H](Cc2c[nH]c3ccccc23)NC(=O)[C@H](CCCNC(=N)N)NC(=O)[C@@H](Cc2ccccc2)NC(=O)[C@H](Cc2c[nH]cn2)NC1=O [lutetium-177 labelled],,,"C57 mouse, female, liver","intravenous, 0.037 MBq, 2 h",,tissue uptake,0.73 ± 0.1 %ID/g
N=C(N)NCCC[C@@H]1NC(=O)[C@H](CCCCNC(=O)CCC(C(=O)O)N2CCCN3CCN(CCCN(C(CCC(=O)NCCCC[C@@H]4NC(=O)[C@@H](Cc5ccc(O)cc5)NC(=O)[C@H](CC(=O)O)NC(=O)CNC(=O)[C@H](CCCNC(=N)N)NC4=O)C(=O)O)CC3)CC2)NC(=O)[C@@H](Cc2ccc(O)cc2)NC(=O)[C@H](CC(=O)O)NC(=O)CNC1=O (stereo partly drawn) [copper-64 labelled],,,SCID mouse,"intravenous, dose not given, 24 h",,dose excreted,88.2 ± 4.9%
[64Cu+2].c1cnc(CNCc2ccc(CN3CCCN4CCNCCCN(CC4)CC3)cc2)nc1,CXCR4,,"NOD/SCID mouse, U87 and U87-stb-CXCR4 xenografts, lungs","iv, 30 min, ex vivo",,tissue uptake,10.7 ± 1.06 %ID/g
CCC(=O)N(C)c1ccc(Cl)c(Cl)c1,CHO-WBL,,,"0.063 mg/mL, 3 h, with S9 activation",,cells with one aberration,0%
CCCC[C@H](NC(=O)CNC(=O)CNC(=O)CN1CCN(CC(=O)O)CCN(CC(=O)O)CC1)C(=O)N[C@H]1CC(=O)NCCCC[C@@H](C(N)=O)NC(=O)[C@H](Cc2c[nH]c3ccccc23)NC(=O)[C@H](CCCNC(=N)N)NC(=O)[C@@H](Cc2ccccc2)NC(=O)[C@H](Cc2c[nH]cn2)NC1=O [technetium-99m labelled],,,"C57 mouse, bone","iv, 0.037 MBq, 24 h",,tissue uptake,0.01 %ID/g
CCCSC(=S)N1CCN(C(=O)/C=C/c2coc3ccccc3c2=O)CC1,tomato spotted wilt virus,"viral infection, half-leaf method",Nicotiana glutinosa,500 µg/mL,,inactivation effect,48.5 ± 3.2%
CC(C)C[C@H](NC(=O)[C@@H](CCCCNC(=O)CCCCCNC(=O)CN1CCN(CC(=O)O)CCN(CC(=O)O)CCN(CC(=O)O)CC1)NC(=O)[C@H](Cc1ccc(O)cc1)NC(=O)[C@H](CO)NC(=O)[C@H](Cc1c[nH]c2ccccc12)NC(=O)[C@H](Cc1cnc[nH]1)NC(=O)[C@@H]1CCC(=O)N1)C(=O)N[C@@H](CCCNC(=N)N)C(=O)N1CCC[C@H]1C(=O)NCC(N)=O [indium-111 labelled],,,"female athymic nude mouse, lung","intravenous, 0.037 MBq, 24 h",,tissue uptake,0.11 ± 0.03 %ID/g
Cc1cc(-c2ccc(NC(=O)[C@H](CCCCNC(=O)CCOCCOCCC(=O)N[C@H](Cc3ccccc3)C(=O)N[C@H]3CSSC[C@@H](C(=O)N[C@H](C(=O)O)[C@@H](C)O)NC(=O)[C@H]([C@@H](C)O)NC(=O)[C@H](CCCCN)NC(=O)[C@@H](Cc4c[nH]c5ccccc45)NC(=O)[C@H](Cc4ccc(O)cc4)NC3=O)NC(=O)CN3CCN(CC(=O)O)CCN(CC(=O)O)CCN(CC(=O)O)CC3)c(C)c2)ccc1N=Nc1ccc2c(S(=O)(=O)O)cc(S(=O)(=O)O)c(N)c2c1O [lutetium-177 labelled],,,"patients with metastatic neuroendocrine tumours, lymph node metastases",,reference: compound over 177Lu-EB-TATE,half-life ratio,1.8 fold
CCCC[C@H](NC(=O)COCCOCCNC(=O)CN1CCN(CC(=O)O)CCN(CC(=O)O)CC1)C(=O)N[C@H]1CC(=O)NCCCC[C@@H](C(N)=O)NC(=O)[C@H](Cc2c[nH]c3ccccc23)NC(=O)[C@H](CCCNC(=N)N)NC(=O)[C@@H](Cc2ccccc2)NC(=O)[C@H](Cc2c[nH]cn2)NC1=O [copper-64 labelled],,,"C57 mice, intestine","intravenous, 0.37 MBq, 2 h",,tissue uptake,1.51 ± 0.23 %ID
N=C(N)NCCC[C@@H]1NC(=O)[C@H](CCCCNC(=O)CNC(=O)CNC(=O)CNC(=O)CC[C@H](NC(=O)CNC(=O)CNC(=O)CNC(=O)CN2CCN(CC(=O)O)CCN(CC(=O)O)CCN(CC(=O)O)CC2)C(=O)NCC(=O)NCC(=O)NCC(=O)NCCCC[C@@H]2NC(=O)[C@@H](Cc3ccccc3)NC(=O)[C@H](CC(=O)O)NC(=O)CNC(=O)[C@H](CCCNC(=N)N)NC2=O)NC(=O)[C@@H](Cc2ccccc2)NC(=O)[C@H](CC(=O)O)NC(=O)CNC1=O [copper-64 labelled],,,"athymic nu/nu mouse, female, kidney","intravenous, 0.5 h",,tissue uptake,8.83 ± 0.96 %ID/g

# Excerpt of the above:
SMILES,tested on,assay,test system,conditions,how to read,endpoint,result
CC(C)C[C@H](NC(=O)[C@@H](CCCCNC(=O)CCCCCNC(=O)CN1CCN(CC(=O)O)CCN(CC(=O)O)CCN(CC(=O)O)CC1)NC(=O)[C@H](Cc1ccc(O)cc1)NC(=O)[C@H](CO)NC(=O)[C@H](Cc1c[nH]c2ccccc12)NC(=O)[C@H](Cc1cnc[nH]1)NC(=O)[C@@H]1CCC(=O)N1)C(=O)N[C@@H](CCCNC(=N)N)C(=O)N1CCC[C@H]1C(=O)NCC(N)=O [indium-111 labelled],,,"female athymic nude mouse, lung","intravenous, 0.037 MBq, 24 h",,tissue uptake,0.11 ± 0.03 %ID/g
